Assay results collected from several papers.
A part holds a random share of what one study measured. “And” joins repeats or separate records; there may be more than shown.

Block 1 — method: RNA Bind-n-Seq; molecule type: RNA; medium: in vitro; tested at: 365 nM; baseline: no-protein control; reading: higher = stronger binding
Target: RNA binding protein fox-1 homolog 2, RRM domain, GST-SBP tag (RBFOX2, Homo sapiens, UniProt O43251-10, residues 100-194)
Notes: natural RNA segment, single round, ends assumed
Shared flanks, not repeated: GGGAGUUCUACAGUCCGACGAUC … UGGAAUUCUCGGGUGCCAA
Target sequence (chain): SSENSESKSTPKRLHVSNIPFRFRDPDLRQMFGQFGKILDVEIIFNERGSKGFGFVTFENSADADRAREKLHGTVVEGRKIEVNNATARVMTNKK
Under “RBNS enrichment (R)”, `UAGAGAGAAAGAGAGAGAGAGAGAGUUGGCAUAAGGACAGUCUUAUCUGUGUCAACCCUCUGCCUGCAGGGACAGAUAAAUGGAACUCUGGUUGUGAUAUCAUAACUAAG` is recorded as 1.94.
`UCCCCACGAAUGGGAAAGCACGUUAGUGGGAGGGACGUAGGACACGUGUGGACCGCCAGGCCCUCUCAGUCCAUUUUCCGGGGCUGCUCGGUGCUGCUGUUAAGACGUGA`: “RBNS enrichment (R)” 0.696.
Under “RBNS enrichment (R)”, `UUGUUUCUAUUAUUAUCUUUUAAUUUCUUUUUUUAUUUAAUAGUAAUAGCUCCUUUCUCCUUCCUCUGAUUUUUAUAUGCUGCUAAAUAUAUUUUAAAUAUACUGUGUUU` is recorded as 1.18.
`UGGGUUGCUAACUGAACUUUGAAGACCCGCUACAAAACGCGCAGAUGUGCAGCAGAUUGGAAGGAGACACAGAUGUUCGGUUUUUUUCCUGUUUCUGAAAAGAAAUAAUA`: “RBNS enrichment (R)” 0.356.
Under “RBNS enrichment (R)”, `UUCCAAGCUGGGCAAGGUACAUUUAAUCAGUAAAUCAGUUUCACAUCAUGUAUUGUGAUGUUUCAAUGUGAGACACAAAAACAAUGGCUUGAAACUUGUGUAUCAUAUGU` is recorded as 0.81.
`UAUGGGUUCCUCUGAGUUGUUUUAGAAAAUUAGCGCAAUGUAUUAAAAUCAAGUGUUAGGAAAUUUCAUGGUCUUACCUACAAUAACUUUUAUUUUGGAAUUGAACUAUU`: “RBNS enrichment (R)” 0.619.
Under “RBNS enrichment (R)”, `UGUGUAUUCACGCAGUUACUCGCUUCCAUUUUUAUGACCUUUCAACUAUAGGUAAUAACUCUUAGAGAAAUUAAUUUAAUAUUAGAAUUUCUAUUAUGAAUCAUGUGAAA` is recorded as 0.574.
`CCAAUCUCUCCCAGCUCUCUUCUUUCCUCCCUGGCCUUUGUCCUGCAGGAGGUAGCAUCACCUCUUGGCAUUUUGUACAUGCUUUUAAACAAUUGGAGGAGCUGCCCAGG`: “RBNS enrichment (R)” 0.719.

Block 2 — organism: SARS-CoV-2; effect on: cytopathic effect; cell line: Vero E6; tested at: 10 µM
The inhibition of `N.N.[Cl][Pt][Cl]` is reported as 6.9%.
`O=C(/C=C/c1ccc2ccccc2n1)c1ccncc1` gave an inhibition of -29.1% and -20%.
For `COC(=O)[C@H](CCSC)NC(=O)c1ccc(NC[C@@H](N)CS)cc1-c1ccccc1`, the inhibition was -7.1%.

Block 3 — method: universal PBM; molecule type: double-stranded DNA, one strand shown; medium: in vitro; tested at: 600 nM; reading: higher = stronger binding
Target: Sal-like protein 4, full length isoform A (SALL4, Homo sapiens, UniProt Q9UJQ4, residues 1-1053)
Sequence of UniProt Q9UJQ4 (whole entry, looked up): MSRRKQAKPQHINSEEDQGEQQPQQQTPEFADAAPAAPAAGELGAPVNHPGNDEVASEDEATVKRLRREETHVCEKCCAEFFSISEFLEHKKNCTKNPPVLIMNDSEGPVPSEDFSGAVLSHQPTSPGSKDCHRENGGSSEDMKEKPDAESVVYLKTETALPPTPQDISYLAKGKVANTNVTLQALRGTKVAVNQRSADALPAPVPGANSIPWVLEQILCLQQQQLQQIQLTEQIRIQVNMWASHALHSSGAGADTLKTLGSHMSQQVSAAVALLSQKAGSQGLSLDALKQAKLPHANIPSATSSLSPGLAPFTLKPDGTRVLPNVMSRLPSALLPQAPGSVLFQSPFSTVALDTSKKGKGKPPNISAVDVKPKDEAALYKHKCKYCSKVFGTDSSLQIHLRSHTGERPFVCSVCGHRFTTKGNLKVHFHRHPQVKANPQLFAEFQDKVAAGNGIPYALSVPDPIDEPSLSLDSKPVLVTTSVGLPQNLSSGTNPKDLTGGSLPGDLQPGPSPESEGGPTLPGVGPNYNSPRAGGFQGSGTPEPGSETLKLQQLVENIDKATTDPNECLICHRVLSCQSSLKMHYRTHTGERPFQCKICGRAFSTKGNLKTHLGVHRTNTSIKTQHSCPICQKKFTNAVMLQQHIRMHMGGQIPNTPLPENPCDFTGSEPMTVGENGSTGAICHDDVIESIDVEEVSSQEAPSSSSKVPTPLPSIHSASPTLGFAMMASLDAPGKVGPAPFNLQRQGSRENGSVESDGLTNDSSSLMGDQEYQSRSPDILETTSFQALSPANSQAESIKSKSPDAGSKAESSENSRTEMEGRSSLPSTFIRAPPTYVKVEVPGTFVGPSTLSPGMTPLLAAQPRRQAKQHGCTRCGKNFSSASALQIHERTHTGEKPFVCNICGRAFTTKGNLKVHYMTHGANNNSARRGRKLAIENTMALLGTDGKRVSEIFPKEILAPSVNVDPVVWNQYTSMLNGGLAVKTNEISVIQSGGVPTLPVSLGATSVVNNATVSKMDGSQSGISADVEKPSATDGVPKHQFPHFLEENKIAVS
Notes: 8-mer, flanks averaged, mean of replicates
For `CCGTGTAA`, the E-score was -0.0568.
`AGTCATGA` has an E-score of 0.0847.
The E-score of `GGATTGCA` is reported as 0.015.
`AAGCCTCC` gave an E-score of -0.16.
The E-score of `ACCTAGGC` is reported as -0.231.
For `AGAAGCTG`, the E-score was -0.125.
For `ACCCTTGA`, the E-score was -0.128.
For `CAGCTACG`, the E-score was -0.165.

Block 4 — cell line: HEK-293T; effect on: pseudovirus infection; organism: VSV pseudotyped with SARS-CoV-2 spike; tested at: 10 µM; time: 16 h; baseline: vehicle-treated
`NC(=O)c1cn(Cc2c(F)cccc2F)nn1` gave a GFP-positive cells of 86.6%.
`CC1=NS(=O)(=O)c2cc(Cl)ccc2N1` has a GFP-positive cells of 76.8%.
For `C[Se]CC[C@H](N)C(=O)O`, the GFP-positive cells was 78.6%.

Block 5 — method: protein binding microarray; molecule type: double-stranded DNA, one strand shown; medium: in vitro; tested at: not given; baseline: not given; reading: higher = stronger binding
Target: Histone acetyltransferase KAT6A, winged helix 2, GST fusion (KAT6A, Homo sapiens, UniProt Q92794, residues 85-181)
Notes: 8-mer, flanks averaged, mean of 2 arrays, mostly near background
Residues (chain): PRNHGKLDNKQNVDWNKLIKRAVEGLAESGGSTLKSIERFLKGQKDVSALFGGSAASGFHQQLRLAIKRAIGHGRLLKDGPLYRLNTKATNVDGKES
For `CTTGGCCC`, the E-score was -0.133.
`ATTTTAGG` gave an E-score of -0.0316.
With `TAATGCAA` the E-score was -0.144.
For `CAGTGTAC`, the E-score was -0.0753.
`CATCCCGG` has an E-score of 0.0899.
With `CTTAATTC` the E-score was 0.0604.
The E-score of `ACCCATGG` is reported as -0.127.
With `GGTCATTA` the E-score was -0.0672.

Block 6 — effect on: enzyme activity; mode: inhibitor; tested at: 20 µM
Target: Replicase polyprotein 1ab, polymerase (rep, Severe acute respiratory syndrome coronavirus 2, UniProt P0DTD1)
The inhibition of `C[N+](C)(C)CCCCCC[N+](C)(C)C` is reported as -4.76%.
The inhibition of `C[C@@]12CCc3occc3[C@H]1CC[C@@]13C[C@@H](CC[C@H]12)[C@@](O)(CO)C3` is reported as 1.96%.
`CC(C)N1CCN(c2ccc(OC[C@H]3CO[C@](Cn4cncn4)(c4ccc(Cl)cc4Cl)O3)cc2)CC1` (racemic) has an inhibition of -8.02%.
The inhibition of `NS(=O)(=O)c1ccc(NC(=O)Nc2ccc(F)cc2)cc1` is reported as -7.34%.
`O[C@H]1CC[C@H](Nc2ncc3nc(Nc4c(F)cc(F)cc4F)n([C@H]4CCOC4)c3n2)CC1` gave an inhibition of -4.52%.
For `NC(=O)CCCCn1ccc(NC(N)=NCC(F)(F)F)n1`, the inhibition was -7.12%.
For `CCC1(C)CC(=O)NC1=O` (stereo not shown), the inhibition was -6.8%.
`COC(=O)[C@]12CCC(C)(C)C[C@H]1[C@H]1C(=O)C=C3[C@@]4(C)C=C(C#N)C(=O)C(C)(C)[C@@H]4CC[C@@]3(C)[C@]1(C)CC2` gave an inhibition of -5.27%.
With `O=C(Nc1cc(C(F)(F)F)cc(C(F)(F)F)c1)c1cnc(Cl)nc1C(F)(F)F` the inhibition was -0.26%.
The inhibition of `Nc1nc2ccc(OC(F)(F)F)cc2s1` is reported as 6.18%.
With `Cc1cc(C)c(NC(=O)C2CC3CCC2C3)c(C)c1` (stereo not shown) the inhibition was -1.68%.
`CCNCc1cc(C(C)(C)C)c(O)c(C(C)(C)C)c1` gave an inhibition of 2.16%.
`Cc1cc(C)c(N(Cc2ccccc2)S(=O)(=O)c2ccc(OCCNC(=O)c3cc4ccccc4o3)cc2)c(C(=O)NO)c1` gave an inhibition of -1.43%.
`c1ccc(-c2n[nH]c3c2oc2ccccc23)cc1` gave an inhibition of -5%.
The inhibition of `COc1cc(C(=O)N(CCC2CCCN2C)C/C(C)=C/c2ccccc2F)cc(OC)c1OC` (stereo not shown) is reported as 23.9%.
With `COCC1(CO)C(=O)C2CCN1CC2` (stereo not shown) the inhibition was 7.24%.
The inhibition of `CCC(=O)O[C@@H]1CC(=O)O[C@H](C)C/C=C/C=C/[C@H](OC(C)=O)[C@H](C)C[C@H](CC=O)[C@H](O[C@@H]2O[C@H](C)[C@@H](O[C@H]3C[C@@](C)(OC(C)=O)[C@@H](OC(=O)CC)[C@H](C)O3)[C@H](N(C)C)[C@H]2O)[C@H]1OC` is reported as -1.6%.
The inhibition of `C#CCN[C@@H]1CCc2ccccc21` is reported as -3.38%.
`CC(CN(C)C)CN1c2ccccc2Sc2ccc(C#N)cc21` (stereo not shown) gave an inhibition of 0.89%.
`CN1[C@@H]2CCC[C@H]1C[C@@H](NC(=O)c1nn(C)c3ccccc13)C2` has an inhibition of 3.89%.
`CC(C)C[C@H](NC(=O)CNC(=O)c1cc(Cl)ccc1Cl)B(O)O` gave an inhibition of -5.17%.
`CCC(Oc1ccc(Cl)cc1)C(=O)OC1C[C@H]2CC[C@@H](C1)N2C` (stereo partly shown) gave an inhibition of 2.52%.
The inhibition of `C[C@@H]1O[C@@H](O[C@H]2[C@H](Oc3cc(O)c(C(=O)CCc4ccc(O)cc4)c(O)c3)O[C@H](CO)[C@@H](O)[C@@H]2O)[C@H](O)[C@H](O)[C@H]1O` is reported as 1.72%.
With `CCOC(=O)C1=C[C@]2(CC)CCCN3CCc4c(n1c1ccccc41)[C@@H]32` the inhibition was -7.36%.
`CC(C)(C)S(=O)(=O)N[C@H]1CC[C@H](C(=O)Nc2ccc(C(F)(F)F)cn2)CC1` gave an inhibition of -1.1%.

Excerpt of the above (block 6):
`CCNCc1cc(C(C)(C)C)c(O)c(C(C)(C)C)c1` gave an inhibition of 2.16%.
For `CCC1(C)CC(=O)NC1=O` (stereo not shown), the inhibition was -6.8%.
`c1ccc(-c2n[nH]c3c2oc2ccccc23)cc1` gave an inhibition of -5%.
With `CCOC(=O)C1=C[C@]2(CC)CCCN3CCc4c(n1c1ccccc41)[C@@H]32` the inhibition was -7.36%.
With `COCC1(CO)C(=O)C2CCN1CC2` (stereo not shown) the inhibition was 7.24%.
